Assay results gathered from unrelated publications.
Parts stem from different laboratories: compare values within a part only.

Block 1
Target: RNA binding protein fox-1 homolog 2, RRM domain, GST-SBP tag (RBFOX2, Homo sapiens, UniProt O43251-10, residues 100-194)
Method: RNA Bind-n-Seq
Molecule type: RNA
Medium: in vitro
Tested at: 365 nM
Setting: natural RNA segment, single round, ends assumed
Relative to: no-protein control
Direction: higher = stronger binding
All sequences stand within: GGGAGUUCUACAGUCCGACGAUC … UGGAAUUCUCGGGUGCCAA
Target sequence (chain): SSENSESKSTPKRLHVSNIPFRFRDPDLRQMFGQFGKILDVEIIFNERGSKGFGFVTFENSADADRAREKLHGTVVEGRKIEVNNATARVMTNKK
Sequence | RBNS enrichment (R)
UCAGGGUUGAACAUGUCCUGCUCCUCAUCCCAUAAGUACCUUGGACUUUCAGGAGCCUCAGGAUCAGUCCUCUAGCAUUUCCUUCACCUUUCUCAUGUACAGGGGCAGCG | 0.362
GAUCUACUGGCUUUUGCUUAUGAUUAAAAAACCUCAAAUCUAUCUUCUACAUUUUAAAAGGAAGAAAAAAAAGCAAAUAACUGAAUUAUUAUAGAAAACUUUAGACCUGU | 0.566
AGUUUUAAAACUCUUGCCAGUUACCACUUUAUCCAAUUUGCUAUCAUUUUCGUAUUAUCAGCUAUCGCCCUGUAAAAUAUUCAAAACUAGCUAUUUCUAAAGUAAACAUU | 0.485
AGCAAACUCAACCAAGAACUGCUCAUUCAGACUCGUGAAACGACCCAGAGAGGGCUCAGAAACGGCCCAGGAAGGCCCAGGGCCUUCCUGGCGUGAUUGACGAUCUGAGU | 0.212
UACUGUGUCCUAUUUUAUUCAUGCCUGUGUGUUUUUCUUAAGUAUGAAUUCUAGAUACAGCUACUUAUGGAUUCAUCAAUAUCAUGAGCACUUUUGCUGGUUCCAGUCAA | 0.453
GACACGUAGCAGCUUAGACUAAGGCCAUUAUUGUACUUGCCUUAUUAGAGUGUCUUUCCACGGAGCCACUCCUCUGACUCAGGGCUCCUGGGUUUUGUAUUCUCUGAGCU | 0.601
UUUUUAUUUUUUGUAAUUUAUCUUUAACUCCUUUUGCAUUUUGUAUAACAGAUUGCUUAACUUCUACUUGCCAACAUCUGCCUUGCUGGACUUGUAUGGGAUUGUCUUCU | 1.52
UGUGGUGAGAUCAUCUGUGUGGAGUUUUAAGAAGCUCUGGAAGAAGGUACUGCCCGCGUUUAAAGGAAGUGCCUUGGCUGGGGCAGCAGUGUCAGCUUGGAUAACUGAAA | 0.578
ACCUGGGGGUACCCGCAUCCACUUCCUUUCCCCCUUUUAACAAAAGAGAAGAACGAAUUCCAAACCAUGCCAGGCUCUGUGGUCUUACCUUGUAUACGAGGCUUGCUGCC | 1.73
UCCCUCUUCUGCCUUCUUCUCCUCUCCCCUCCGAGAGGGGCAGCCAGGAACUGCAACGGACUCACACUGUGCACGCUGGAUAGCGAAUAGCAGUAAGUAGCACACCCAUC | 0.454
UGGCAAAUAGGAUGUGUGCCCAAAGAAUUAAAGCGAUGAGUGGCUGGUGAAGCGCUCUCUGUCCUGGCUGGUUUUUUGUCACCGCAAUCCACUGCCAAAGGCAGAAUUUA | 0.595
AGGGGUACGCUUAGGUGGGCAGUCCUGUGGGGAAAACAUCUUGUCUCCAUCUUGCUAGGAAGAACCAACCCACAAAACAACGCCAUCACUGGAAUCUCCCAUCGCUUUAG | 0.397

Block 2
Target: Prothrombin, mature alpha-thrombin (F2, Homo sapiens, UniProt P00734)
Method: aptamer microarray, sandwich
Molecule type: DNA with 2'F-ANA
Medium: in vitro
Tested at: 200 nM
Setting: whole 15-mer aptamer, many near background
Added: Cy3 exosite-II aptamer, 400 nM
Direction: higher = stronger binding
Sequence: GGTTGGTGTGGTTGG
Modification | mean fluorescence intensity
2'F-ANA at 2 6 8 9 10 14 15 | 84.3 a.u.
2'F-ANA at 5 6 8 10 13 | 44.2 a.u.
2'F-ANA at 1 3 4 6 8 10 11 14 15 | 115 a.u.
2'F-ANA at 2 3 4 5 6 9 10 14 | 47.4 a.u.
2'F-ANA at 1 2 4 7 8 9 11 12 14 15 | 60.5 a.u.
2'F-ANA at 2 4 7 9 10 13 15 | 73.6 a.u.
2'F-ANA at 1 5 9 10 11 12 13 14 15 | 127 a.u.
2'F-ANA at 1 4 7 10 12 14 15 | 59.5 a.u.
2'F-ANA at 1 2 6 7 11 12 14 | 59.6 a.u.
2'F-ANA at 1 4 6 10 11 14 15 | 79.1 a.u.
2'F-ANA at 6 7 10 | 184 a.u.
2'F-ANA at 2 3 5 8 9 10 12 | 62.1 a.u.
2'F-ANA at 1 2 11 12 13 14 | 60 a.u.
2'F-ANA at 2 3 4 5 7 8 10 11 14 | 48.6 a.u.
2'F-ANA at 2 3 6 7 8 11 13 14 15 | 331 a.u.
2'F-ANA at 4 5 9 10 12 15 | 54.8 a.u.
2'F-ANA at 1 4 7 8 9 10 12 15 | 62.4 a.u.
2'F-ANA at 1 3 5 7 9 10 11 15 | 76.5 a.u.
2'F-ANA at 1 2 4 5 6 8 9 11 12 13 14 15 | 101 a.u.
2'F-ANA at 1 2 5 7 8 9 12 13 15 | 84.3 a.u.
2'F-ANA at 7 8 11 13 14 15 | 204 a.u.
2'F-ANA at 2 5 6 8 9 10 11 13 15 | 61.5 a.u.
2'F-ANA at 2 3 7 8 11 13 14 15 | 419 a.u.
2'F-ANA at 1 2 4 5 10 | 42.8 a.u.
2'F-ANA at 4 5 6 12 | 174 a.u.

Block 3
Target: Max-binding protein MNT, bHLH-zipper, MAX partner unstated (MNT, Homo sapiens, UniProt Q99583, residues 220-300)
Method: protein-binding microarray
Molecule type: double-stranded DNA, one strand shown
Medium: in vitro
Tested at: not given
Setting: k-mer, scored over probes, only values ≥0.25
Direction: higher = stronger binding
Target sequence (chain): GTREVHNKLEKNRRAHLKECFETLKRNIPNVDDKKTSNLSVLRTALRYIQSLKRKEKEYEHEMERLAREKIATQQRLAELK
Sequence | E-score
GTCATGCA | 0.261
GGTGGGGA | 0.35
CGCACGAG | 0.437
ACATGTAG | 0.287
GTGTTGCA | 0.269
ACGCGCTG | 0.304
ACGTGAAC | 0.339
AACACGAG | 0.426
CACGCGTG | 0.466
CATGCGCG | 0.404
CATGTCCG | 0.31
ATACATGC | 0.317
CATGTAGC | 0.278
CTCCACGA | 0.283
CACATGAG | 0.394
CACTCATG | 0.25
ATGTGCAA | 0.258
CGCATGCG | 0.459
CCACGAGA | 0.352
ATGCGTAC | 0.332
CCCCGCCC | 0.384
AAGCGTGC | 0.395
CGTGTTGA | 0.295
CCACGCTC | 0.372
ATGCCCAC | 0.275

Block 4
Target: Ras GTPase-activating protein-binding protein 1, full length (G3BP1, Homo sapiens, UniProt Q13283)
Sequence of UniProt Q13283 (whole entry, looked up): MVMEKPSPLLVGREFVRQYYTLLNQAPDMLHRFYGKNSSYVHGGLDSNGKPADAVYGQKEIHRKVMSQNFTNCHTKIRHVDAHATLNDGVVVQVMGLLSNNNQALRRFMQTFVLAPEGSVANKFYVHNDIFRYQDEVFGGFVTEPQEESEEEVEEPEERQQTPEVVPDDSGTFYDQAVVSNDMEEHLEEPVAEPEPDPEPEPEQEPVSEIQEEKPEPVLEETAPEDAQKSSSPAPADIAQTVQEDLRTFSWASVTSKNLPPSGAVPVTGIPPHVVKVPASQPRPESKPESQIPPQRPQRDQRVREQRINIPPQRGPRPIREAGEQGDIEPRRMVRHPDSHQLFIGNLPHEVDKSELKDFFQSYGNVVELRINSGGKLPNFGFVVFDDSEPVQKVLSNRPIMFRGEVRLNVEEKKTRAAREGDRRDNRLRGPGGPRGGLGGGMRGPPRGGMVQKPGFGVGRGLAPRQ
Method: RNA Bind-n-Seq
Molecule type: RNA
Medium: in vitro
Tested at: 200 nM
Setting: whole 134-nt RNA, ends assumed
Added: 150 mM LiCl
Relative to: input library
Direction: higher = stronger binding
Library: 7-deaza-guanosine replaces G
All sequences stand within: GGGAGUUCUACAGUCCGACGAUC … UGGAAUUCUCGGGUGUCAAGG
Sequence | log2 enrichment
CCUGUGCUACACAUCGUAUGUACCGAAUCGGGGUUUUUUGGGGUUUUUUGGGUUUUUUGGAAAGUAUUAUGUUACGCCGUUCGGAUCUGC | 1.37
UCCUGUGCUACACAUCGUAUGUACCGAAUCGGAAAAAAAGGAAAAAAAGGUUUUUUUGGAAAGUAUUAUGUUACGCCGUUCGGAUCUGCA | -1.89
UCCUGUGCUACACAUCGUAUGUACCGAAUCGGGGAAAAAGGGGAAAAAAAGGGGAGGGGAAAGUAUUAUGUUACGCCGUUCGGAUCUGCA | 0.484
CCUCAAGUCCUGUGCUACACAUCGUAUGUACCGAAUCGGUGGGGUGGUGGGGAAAGUAUUAUGUUACGCCGUUCGGAUCUGCACUUCCAG | -0.0233
UAACUUUAGAGGAGGAUCUGAUGGAUAUGGCAGUGGACGUGGAUGUGGGGAUGGCUAUAAUGGGUAUGGAGGAGGACCUGGAGGUGGCAA | 0.0632
CUGUGCUACACAUCGUAUGUACCGAAUCGGGCCCCCCCGGCCCCCCCGGGCCCCCCCGGGGAAAGUAUUAUGUUACGCCGUUCGGAUCUG | -0.0206
UGGGAGGUGGAUUUUGUUUAUUUUUUUAGCUCAUUUCCAGGGGUGGGAAUUUUUUUUUAAUAUGUGGCAUGAAUAAAGUUGUUUUUGAAA | 0.168
GCAGGAAGUAAAAACAAAUGGAAAUGCUUCGGAUAGUGGCAGGGGUGGGGGUUGCUAAGGAAAGGAAAGGAUGGGAGUGGGUAAAGAGUU | 0.252
UAACUUUAGAGGAGGAUCUGAUGGAUAUGGCAGUGGACGUGGAUUUGGGGAUGGCUAUAAUGGGUAUGGAGGAGGACCUGGAGGUGGUAA | 0.198
UCCUCAAGUCCUGUGCUACACAUCGUAUGUACCGAAUCGGUGGUGGAAAGGAAAGUAUUAUGUUACGCCGUUCGGAUCUGCACUUCCAGC | 0.554
GUCCUGUGCUACACAUCGUAUGUACCGAAUCGGGGUUUUUGGGGUUUUUGGUUUUUGGGAAAGUAUUAUGUUACGCCGUUCGGAUCUGCA | -0.81

Block 5
Target: PABPC1L2, full length, GST fusion (mouse, UniProt A0ABA7IW68)
Method: RNAcompete
Molecule type: RNA
Medium: in vitro
Tested at: 20 nM
Setting: 7-mer, probes averaged, single round
Relative to: mean of 7-mers
Direction: higher = stronger binding
Construct (chain): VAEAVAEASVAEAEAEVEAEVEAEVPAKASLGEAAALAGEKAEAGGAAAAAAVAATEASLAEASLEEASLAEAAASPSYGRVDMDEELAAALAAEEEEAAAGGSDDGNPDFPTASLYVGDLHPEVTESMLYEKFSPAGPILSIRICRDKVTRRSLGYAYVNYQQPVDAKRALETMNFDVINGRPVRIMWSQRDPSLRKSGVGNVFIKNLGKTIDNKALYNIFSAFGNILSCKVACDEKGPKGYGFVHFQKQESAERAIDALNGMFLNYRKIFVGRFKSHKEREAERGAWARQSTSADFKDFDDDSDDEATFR
Sequence | 7-mer Z-score
CAUGUCG | -0.142
UAUAUCC | -0.427
CCUGCUA | -0.193
GGAAACU | -0.121
CUACUUC | -0.26
ACAUUCG | -0.0482
GUUUUCG | -0.423
AUAAAAA | 12.9
GUGAGAU | -0.2
CAUGCUC | -0.295
CUGAGAU | -0.0536
CUAAAUA | 1
ACCCACA | -0.302
CUCAUAA | -0.0446
UAUCUUC | -0.287
UCAGAAA | 1.68
GAUGGCU | -0.079
AAACACG | 2.68
CGAGGUU | -0.226
GCCAACU | -0.289
GGACGUA | 0.122
AUUGACA | -0.11
GUCUGAC | -0.344
GAGAAGG | 0.12
CUCGAAC | -0.376

Excerpt of the above (block 3):
Sequence | E-score
ACGCGCTG | 0.304
ACGTGAAC | 0.339
AACACGAG | 0.426
CACGCGTG | 0.466
CATGCGCG | 0.404
CATGTCCG | 0.31
ATACATGC | 0.317
CATGTAGC | 0.278
CTCCACGA | 0.283
CACATGAG | 0.394
